Assay results from different studies.
A part holds a random share of what one study measured. ± gives the spread as reported.
Sequence of UniProt P10721 (whole entry, unmodified, looked up): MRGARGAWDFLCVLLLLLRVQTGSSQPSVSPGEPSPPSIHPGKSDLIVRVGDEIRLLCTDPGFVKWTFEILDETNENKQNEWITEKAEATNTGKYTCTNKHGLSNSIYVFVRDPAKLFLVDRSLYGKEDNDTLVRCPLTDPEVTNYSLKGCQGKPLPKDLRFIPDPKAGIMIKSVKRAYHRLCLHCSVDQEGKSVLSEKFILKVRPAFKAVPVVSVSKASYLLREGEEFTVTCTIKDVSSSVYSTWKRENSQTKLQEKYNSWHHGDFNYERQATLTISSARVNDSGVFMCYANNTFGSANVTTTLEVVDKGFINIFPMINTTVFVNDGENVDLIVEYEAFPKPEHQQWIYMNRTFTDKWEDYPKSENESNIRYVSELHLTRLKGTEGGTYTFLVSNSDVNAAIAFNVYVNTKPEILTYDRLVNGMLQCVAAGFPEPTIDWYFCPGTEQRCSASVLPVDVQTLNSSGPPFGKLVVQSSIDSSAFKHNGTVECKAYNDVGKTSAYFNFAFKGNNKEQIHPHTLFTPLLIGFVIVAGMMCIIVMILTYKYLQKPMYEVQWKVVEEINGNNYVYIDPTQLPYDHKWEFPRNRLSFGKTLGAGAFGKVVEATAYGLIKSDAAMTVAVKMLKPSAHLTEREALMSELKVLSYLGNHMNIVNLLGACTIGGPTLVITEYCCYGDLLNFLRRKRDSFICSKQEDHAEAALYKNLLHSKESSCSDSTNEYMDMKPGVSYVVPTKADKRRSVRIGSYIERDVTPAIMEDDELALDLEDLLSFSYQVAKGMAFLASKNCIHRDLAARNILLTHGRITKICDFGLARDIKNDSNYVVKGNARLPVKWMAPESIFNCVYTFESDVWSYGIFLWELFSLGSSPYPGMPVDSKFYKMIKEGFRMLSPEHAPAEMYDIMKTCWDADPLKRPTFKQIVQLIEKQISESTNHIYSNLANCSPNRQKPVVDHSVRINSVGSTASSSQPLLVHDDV
Sequence of UniProt Q13976 (whole entry, looked up): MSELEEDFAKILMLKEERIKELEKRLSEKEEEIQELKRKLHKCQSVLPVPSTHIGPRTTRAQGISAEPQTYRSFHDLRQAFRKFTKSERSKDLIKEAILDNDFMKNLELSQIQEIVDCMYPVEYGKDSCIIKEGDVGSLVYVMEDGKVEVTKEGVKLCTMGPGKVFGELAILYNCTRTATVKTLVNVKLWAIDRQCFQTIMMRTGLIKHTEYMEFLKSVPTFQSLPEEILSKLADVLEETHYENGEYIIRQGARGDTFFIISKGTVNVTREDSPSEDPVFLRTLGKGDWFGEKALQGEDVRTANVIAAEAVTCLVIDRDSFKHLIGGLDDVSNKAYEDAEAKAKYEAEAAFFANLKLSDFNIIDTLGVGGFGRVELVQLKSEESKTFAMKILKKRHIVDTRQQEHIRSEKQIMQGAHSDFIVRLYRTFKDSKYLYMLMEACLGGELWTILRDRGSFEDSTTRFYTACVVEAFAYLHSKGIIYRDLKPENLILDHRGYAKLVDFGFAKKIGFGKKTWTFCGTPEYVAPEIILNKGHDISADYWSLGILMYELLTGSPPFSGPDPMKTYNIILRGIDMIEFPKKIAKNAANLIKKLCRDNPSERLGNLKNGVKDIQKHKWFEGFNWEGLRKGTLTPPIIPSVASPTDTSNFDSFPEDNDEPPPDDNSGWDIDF
Sequence of UniProt Q9Y3S1 (whole entry, looked up): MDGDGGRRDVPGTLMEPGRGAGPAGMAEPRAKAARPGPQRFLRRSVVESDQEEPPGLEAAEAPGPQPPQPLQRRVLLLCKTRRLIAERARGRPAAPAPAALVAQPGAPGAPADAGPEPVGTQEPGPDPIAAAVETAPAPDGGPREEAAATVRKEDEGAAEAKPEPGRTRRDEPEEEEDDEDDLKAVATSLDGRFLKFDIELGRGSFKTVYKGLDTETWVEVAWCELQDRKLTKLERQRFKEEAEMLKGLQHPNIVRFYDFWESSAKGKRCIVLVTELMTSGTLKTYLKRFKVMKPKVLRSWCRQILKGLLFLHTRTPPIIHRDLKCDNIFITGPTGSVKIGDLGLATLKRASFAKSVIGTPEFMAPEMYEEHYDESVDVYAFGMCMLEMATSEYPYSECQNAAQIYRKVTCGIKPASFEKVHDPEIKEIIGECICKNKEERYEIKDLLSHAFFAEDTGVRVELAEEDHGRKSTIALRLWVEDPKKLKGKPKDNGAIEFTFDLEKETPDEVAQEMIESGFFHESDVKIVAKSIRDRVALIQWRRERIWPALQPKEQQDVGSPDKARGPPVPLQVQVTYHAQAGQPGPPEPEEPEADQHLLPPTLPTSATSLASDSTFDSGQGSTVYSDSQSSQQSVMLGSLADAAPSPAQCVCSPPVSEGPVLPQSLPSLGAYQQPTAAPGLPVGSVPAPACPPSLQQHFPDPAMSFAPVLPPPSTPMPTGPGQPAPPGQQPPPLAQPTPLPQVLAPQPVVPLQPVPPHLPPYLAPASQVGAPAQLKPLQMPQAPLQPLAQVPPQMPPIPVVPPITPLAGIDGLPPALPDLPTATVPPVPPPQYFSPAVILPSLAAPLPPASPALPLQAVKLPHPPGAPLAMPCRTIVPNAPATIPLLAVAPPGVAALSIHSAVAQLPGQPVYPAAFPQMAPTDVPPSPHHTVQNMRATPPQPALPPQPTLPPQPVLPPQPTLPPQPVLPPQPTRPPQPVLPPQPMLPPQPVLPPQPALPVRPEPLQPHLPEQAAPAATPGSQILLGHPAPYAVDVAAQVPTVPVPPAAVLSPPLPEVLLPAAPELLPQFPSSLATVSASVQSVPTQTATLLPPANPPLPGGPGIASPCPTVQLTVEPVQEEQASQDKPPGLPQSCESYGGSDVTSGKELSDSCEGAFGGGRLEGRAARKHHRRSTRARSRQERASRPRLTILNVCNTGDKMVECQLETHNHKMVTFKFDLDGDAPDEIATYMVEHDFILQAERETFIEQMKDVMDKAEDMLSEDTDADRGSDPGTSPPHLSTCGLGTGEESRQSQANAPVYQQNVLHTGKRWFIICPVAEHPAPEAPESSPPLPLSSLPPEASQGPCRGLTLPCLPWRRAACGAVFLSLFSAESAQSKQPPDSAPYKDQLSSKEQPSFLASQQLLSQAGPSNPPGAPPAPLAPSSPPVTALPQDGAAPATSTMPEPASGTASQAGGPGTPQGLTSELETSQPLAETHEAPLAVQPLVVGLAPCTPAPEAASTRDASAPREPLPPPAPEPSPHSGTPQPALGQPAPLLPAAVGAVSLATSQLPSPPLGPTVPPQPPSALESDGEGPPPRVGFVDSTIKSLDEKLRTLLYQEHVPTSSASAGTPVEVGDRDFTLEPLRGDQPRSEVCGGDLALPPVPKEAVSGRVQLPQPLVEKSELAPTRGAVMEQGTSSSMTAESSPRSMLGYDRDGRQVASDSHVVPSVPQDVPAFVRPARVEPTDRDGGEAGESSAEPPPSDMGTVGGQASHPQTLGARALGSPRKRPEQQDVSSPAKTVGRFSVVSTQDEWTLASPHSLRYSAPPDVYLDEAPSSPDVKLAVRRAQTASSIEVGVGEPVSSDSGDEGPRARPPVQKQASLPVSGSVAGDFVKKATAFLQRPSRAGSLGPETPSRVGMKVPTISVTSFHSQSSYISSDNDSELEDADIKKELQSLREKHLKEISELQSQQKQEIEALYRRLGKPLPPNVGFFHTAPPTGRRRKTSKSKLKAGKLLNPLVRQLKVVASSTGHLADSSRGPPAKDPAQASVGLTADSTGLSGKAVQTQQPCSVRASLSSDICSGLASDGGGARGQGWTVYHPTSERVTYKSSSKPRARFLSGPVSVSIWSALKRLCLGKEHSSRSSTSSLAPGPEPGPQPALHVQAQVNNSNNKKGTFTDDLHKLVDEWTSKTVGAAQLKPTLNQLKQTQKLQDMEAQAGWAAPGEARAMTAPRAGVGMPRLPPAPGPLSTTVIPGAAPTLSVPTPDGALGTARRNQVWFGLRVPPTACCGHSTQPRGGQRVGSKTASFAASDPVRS
Sequence of UniProt O14757 (whole entry, looked up): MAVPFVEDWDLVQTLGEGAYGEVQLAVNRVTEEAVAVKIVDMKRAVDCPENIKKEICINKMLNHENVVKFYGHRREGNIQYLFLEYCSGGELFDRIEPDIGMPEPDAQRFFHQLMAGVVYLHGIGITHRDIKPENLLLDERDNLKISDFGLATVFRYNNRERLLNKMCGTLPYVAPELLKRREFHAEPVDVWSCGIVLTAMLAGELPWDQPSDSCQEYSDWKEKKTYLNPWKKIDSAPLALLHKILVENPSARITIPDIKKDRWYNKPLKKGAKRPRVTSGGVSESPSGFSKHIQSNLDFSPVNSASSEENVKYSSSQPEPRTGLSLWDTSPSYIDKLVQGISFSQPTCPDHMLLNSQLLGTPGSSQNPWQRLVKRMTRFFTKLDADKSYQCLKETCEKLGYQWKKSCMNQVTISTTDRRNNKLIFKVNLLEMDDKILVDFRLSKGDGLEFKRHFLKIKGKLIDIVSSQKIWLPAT
Sequence of UniProt P68400 (whole entry, looked up): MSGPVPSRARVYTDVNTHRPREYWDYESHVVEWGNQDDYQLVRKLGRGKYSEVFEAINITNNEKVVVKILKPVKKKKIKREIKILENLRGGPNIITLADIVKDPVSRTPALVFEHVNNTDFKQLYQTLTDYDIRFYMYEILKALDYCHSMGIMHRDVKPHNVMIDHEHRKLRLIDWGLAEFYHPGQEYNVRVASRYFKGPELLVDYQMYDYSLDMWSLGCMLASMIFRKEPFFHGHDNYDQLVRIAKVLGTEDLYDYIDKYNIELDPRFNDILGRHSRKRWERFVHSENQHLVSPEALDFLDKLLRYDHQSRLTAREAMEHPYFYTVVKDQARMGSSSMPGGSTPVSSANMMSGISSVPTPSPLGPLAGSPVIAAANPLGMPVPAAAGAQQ

Block 1 — effect on: cell-free assay; method: competition with immobilised ligand; tested at: 1 µM
SMILES: Nc1cnc(N2CCc3cc(S(=O)(=O)Nc4c(F)cc(Cl)cc4F)cc(N4CCCC4=O)c32)nc1
Serine/threonine-protein kinase 3 (STK3, Homo sapiens, UniProt Q13188) — remaining binding: 96%.
For Mast/stem cell growth factor receptor Kit (KIT, Homo sapiens, UniProt P10721, L576P): remaining binding read 83%.
The remaining binding was 100% (Tyrosine-protein kinase Yes (YES1, Homo sapiens, UniProt P07947)).
The remaining binding was 100% (Mast/stem cell growth factor receptor Kit (KIT, Homo sapiens, UniProt P10721)).
For SRSF protein kinase 2 (SRPK2, Homo sapiens, UniProt P78362): remaining binding read 100%.
Tyrosine-protein kinase ABL1, phosphorylated (ABL1, Homo sapiens, UniProt P00519, M351T) — remaining binding: 100%.
For cGMP-dependent protein kinase 1 (PRKG1, Homo sapiens, UniProt Q13976): remaining binding read 97%.
Dual specificity protein kinase CLK4 (CLK4, Homo sapiens, UniProt Q9HAZ1) — remaining binding: 89%.
It gave 91% for remaining binding (Homeodomain-interacting protein kinase 1 (HIPK1, Homo sapiens, UniProt Q86Z02)).
The remaining binding was 100% (TRAF2 and NCK-interacting protein kinase (TNIK, Homo sapiens, UniProt Q9UKE5)).
For Epidermal growth factor receptor (EGFR, Homo sapiens, UniProt P00533, L861Q): remaining binding read 100%.
Epidermal growth factor receptor (EGFR, Homo sapiens, UniProt P00533, del752-759) — remaining binding: 100%.
It gave 85% for remaining binding (Cyclin-dependent kinase-like 1 (CDKL1, Homo sapiens, UniProt Q00532)).

Block 2 — effect on: enzyme activity; mode: inhibitor; tested at: 0.5 µM; relative to: control
SMILES: O=Nc1c(-c2c(O)[nH]c3cc(Br)ccc23)[nH]c2ccccc12
MAP kinase-interacting serine/threonine-protein kinase 2 (MKNK2, Homo sapiens, UniProt Q9HBH9) — remaining activity: 75.3%.
For Serine/threonine-protein kinase PLK2 (PLK2, Homo sapiens, UniProt Q9NYY3): remaining activity read 98.9%.
For Leucine-rich repeat serine/threonine-protein kinase 2 (LRRK2, Homo sapiens, UniProt Q5S007): remaining activity read 95.3%.
The remaining activity was 5.98% (Tyrosine-protein kinase Lyn (LYN, Homo sapiens, UniProt P07948)).
The remaining activity was 103% (Protein kinase C delta type (PRKCD, Homo sapiens, UniProt Q05655)).
Ephrin type-A receptor 5 (EPHA5, Homo sapiens, UniProt P54756) — remaining activity: 70.4%.
Mitogen-activated protein kinase kinase kinase kinase 2 (MAP4K2, Homo sapiens, UniProt Q12851) — remaining activity: 61.5%.
Mitogen-activated protein kinase kinase kinase 10 (MAP3K10, Homo sapiens, UniProt Q02779) — remaining activity: 92.1%.
It gave 96.7% for remaining activity (Serine/threonine-protein kinase Nek4 (NEK4, Homo sapiens, UniProt P51957)).
Mitogen-activated protein kinase 12 (MAPK12, Homo sapiens, UniProt P53778) — remaining activity: 93.8%.
It gave 98.2% for remaining activity (Dual specificity mitogen-activated protein kinase kinase 6 (MAP2K6, Homo sapiens, UniProt P52564)).
For Mast/stem cell growth factor receptor Kit (KIT, Homo sapiens, UniProt P10721): remaining activity read 42.3%.
Interleukin-1 receptor-associated kinase 4 (IRAK4, Homo sapiens, UniProt Q9NWZ3) — remaining activity: 90.1%.
It gave 13.1% for remaining activity (Tyrosine-protein kinase BTK (BTK, Homo sapiens, UniProt Q06187)).
Mitogen-activated protein kinase 13 (MAPK13, Homo sapiens, UniProt O15264) — remaining activity: 87.5%.
For RAC-gamma serine/threonine-protein kinase (AKT3, Homo sapiens, UniProt Q9Y243): remaining activity read 89.4%.
It gave 57.1% for remaining activity (Serine/threonine-protein kinase Chk1 (CHEK1, Homo sapiens, UniProt O14757)).
The remaining activity was 89% (cGMP-dependent protein kinase 1 (PRKG1, Homo sapiens, UniProt Q13976)).
Cyclin-dependent kinase 9, with cyclin T1 (CDK9, Homo sapiens, UniProt P50750) — remaining activity: 68.2%.
For Serine/threonine-protein kinase WNK2 (WNK2, Homo sapiens, UniProt Q9Y3S1): remaining activity read 104%.
Casein kinase II subunit alpha (CSNK2A1, Homo sapiens, UniProt P68400) — remaining activity: 82.2%.
It gave 97.3% for remaining activity (Protein kinase C iota type (PRKCI, Homo sapiens, UniProt P41743)).

Block 3 — effect on: kinase activity
SMILES: COc1cc(C(=O)N2CCC(N3CCN(C)CC3)CC2)ccc1Nc1ncc2c(n1)N(C)c1ccccc1C(=O)N2C
It gave 90 ± 4% for remaining activity (IGF-1R; 10 µM).
For SmMLCK; 10 µM: remaining activity read 25 ± 30%.
It gave 90 ± 7% for remaining activity (EPH-B4; 1 µM).
It gave 97 ± 5% for remaining activity (PIM2; 10 µM).
For EPH-B3; 10 µM: remaining activity read 71 ± 3%.
The remaining activity was 79 ± 3% (JNK2; 1 µM).
For TBK1; 1 µM: remaining activity read 94 ± 6%.
PAK4; 1 µM — remaining activity: 94 ± 16%.

Other studies, line by line
For `C[C@@H](O)C(=O)O`, the inhibition was -30% (Calcium/calmodulin-dependent protein kinase type II subunit alpha (CAMK2A, Homo sapiens, UniProt Q9UQM7); enzyme activity, inhibitor; 10 µM).

For quick reference, copied from above (block 2):
Mitogen-activated protein kinase 12 (MAPK12, Homo sapiens, UniProt P53778) — remaining activity: 93.8%.
For Serine/threonine-protein kinase PLK2 (PLK2, Homo sapiens, UniProt Q9NYY3): remaining activity read 98.9%.
